{"data": "Measured values collected from several papers", "note": "± gives the spread as reported.", "chain of UniProt P48736 (whole entry, looked up)": "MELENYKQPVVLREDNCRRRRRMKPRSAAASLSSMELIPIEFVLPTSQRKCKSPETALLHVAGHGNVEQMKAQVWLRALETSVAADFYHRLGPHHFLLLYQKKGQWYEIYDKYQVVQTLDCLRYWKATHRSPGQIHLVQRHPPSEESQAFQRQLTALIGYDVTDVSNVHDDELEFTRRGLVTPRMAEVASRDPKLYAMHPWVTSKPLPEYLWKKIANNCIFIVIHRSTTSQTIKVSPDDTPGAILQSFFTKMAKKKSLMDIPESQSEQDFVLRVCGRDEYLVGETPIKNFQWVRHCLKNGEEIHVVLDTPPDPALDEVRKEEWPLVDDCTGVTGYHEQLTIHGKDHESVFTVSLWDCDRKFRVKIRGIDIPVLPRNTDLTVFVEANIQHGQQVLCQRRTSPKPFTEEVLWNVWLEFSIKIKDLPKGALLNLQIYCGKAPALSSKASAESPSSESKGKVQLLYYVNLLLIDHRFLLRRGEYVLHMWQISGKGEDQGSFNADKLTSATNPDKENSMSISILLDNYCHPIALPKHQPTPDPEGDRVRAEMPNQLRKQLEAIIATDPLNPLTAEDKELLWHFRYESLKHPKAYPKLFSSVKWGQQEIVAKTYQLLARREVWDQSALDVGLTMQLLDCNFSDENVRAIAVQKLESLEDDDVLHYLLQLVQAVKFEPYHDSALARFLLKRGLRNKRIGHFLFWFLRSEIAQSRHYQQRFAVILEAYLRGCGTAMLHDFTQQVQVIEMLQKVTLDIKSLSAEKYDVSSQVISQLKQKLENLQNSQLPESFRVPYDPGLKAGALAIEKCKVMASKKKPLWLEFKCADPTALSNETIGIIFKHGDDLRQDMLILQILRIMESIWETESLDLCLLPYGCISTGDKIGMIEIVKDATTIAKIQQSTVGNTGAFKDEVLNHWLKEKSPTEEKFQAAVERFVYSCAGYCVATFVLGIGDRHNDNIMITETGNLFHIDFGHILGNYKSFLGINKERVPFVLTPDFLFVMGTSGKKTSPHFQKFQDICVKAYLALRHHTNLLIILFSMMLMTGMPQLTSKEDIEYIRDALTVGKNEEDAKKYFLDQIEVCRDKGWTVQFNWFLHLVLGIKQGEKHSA", "chain of UniProt O35659 (whole entry, looked up)": "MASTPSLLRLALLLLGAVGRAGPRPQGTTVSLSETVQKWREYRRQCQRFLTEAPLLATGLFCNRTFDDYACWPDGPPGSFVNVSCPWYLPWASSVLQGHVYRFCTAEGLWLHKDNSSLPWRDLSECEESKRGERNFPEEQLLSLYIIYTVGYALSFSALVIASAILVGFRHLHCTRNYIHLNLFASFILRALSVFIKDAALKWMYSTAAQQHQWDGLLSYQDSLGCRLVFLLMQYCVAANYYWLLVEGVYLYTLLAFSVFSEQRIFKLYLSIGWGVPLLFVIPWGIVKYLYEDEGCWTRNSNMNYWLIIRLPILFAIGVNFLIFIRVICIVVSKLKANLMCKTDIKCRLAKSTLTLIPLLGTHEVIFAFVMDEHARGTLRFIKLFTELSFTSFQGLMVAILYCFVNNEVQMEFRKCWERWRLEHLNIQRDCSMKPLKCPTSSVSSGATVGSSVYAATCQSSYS"}
{"Compound": "CCCC[C@@H]1NC(=O)[C@H](Cc2ccc(O)cc2)NC(=O)[C@@H]2CCCN2C(=O)[C@H](CC(=O)O)NC(=O)[C@H](C)NC(=O)[C@H](Cc2ccccc2)NC(=O)[C@@H]2CSCCC(=O)N3CN(CN(C3)C(=O)CCSC[C@@H](C(=O)N[C@@H](C)C(N)=O)NC1=O)C(=O)CCSC[C@H](NC(C)=O)C(=O)N[C@@H](CC(C)(C)C)C(=O)N1CCC[C@H]1C(=O)N[C@@H](CCC(=O)O)C(=O)N[C@H](CCCCNC(=O)CCc1cn(CCOCCOCCOCCN(CCOCCOCCOCCC(=O)N[C@H]3CSCCC(=O)N4CN5CN(C4)C(=O)CCSC[C@H](NC(=O)[C@@H](CC(=O)O)NC(=O)[C@H](Cc4cccc6ccccc46)NC(=O)[C@@H]4CCCN4C3=O)C(=O)N[C@@H](CCSC)C(=O)N[C@@H](CCCCNC(=N)N)C(=O)N[C@@H](CC(=O)O)C(=O)N[C@@H](Cc3c[nH]c4ccccc34)C(=O)N[C@@H](CO)C(=O)N[C@@H]([C@@H](C)O)C(=O)N3CCC[C@H]3C(=O)N3C[C@H](O)C[C@H]3C(=O)N[C@@H](Cc3c[nH]c4ccccc34)C(=O)N[C@H](C(N)=O)CSCCC5=O)CCOCCOCCOCCn3cc(CCC(=O)NCCCC[C@H]4NC(=O)[C@H](CCC(=O)O)NC(=O)[C@@H]5CCCN5C(=O)[C@H](CC(C)(C)C)NC(=O)[C@@H](NC(C)=O)CSCCC(=O)N5CN6CN(C5)C(=O)CCSC[C@H](NC(=O)[C@H](Cc5ccc(O)cc5)NC(=O)[C@@H]5CCCN5C4=O)C(=O)N[C@@H](Cc4ccccc4)C(=O)N[C@@H](C)C(=O)N[C@@H](CC(=O)O)C(=O)N4CCC[C@H]4C(=O)N[C@@H](Cc4ccc(O)cc4)C(=O)N[C@@H](CCCC)C(=O)N[C@H](C(=O)N[C@@H](C)C(N)=O)CSCCC6=O)nn3)nn1)C(=O)N1CCC[C@H]1C(=O)N[C@@H](Cc1ccc(O)cc1)C(=O)N2", "tested on": "Poliovirus receptor (PVR, Homo sapiens, UniProt P15151)", "test": "SPR", "measurement": "Kd", "result": "> 200 nM"}
{"Compound": "CC(=O)NCCN(CC(=O)NCCN(CC(=O)NCCN(CC(=O)NCCC(N)=O)C(=O)C[C@@H](N)CCCNC(=N)N)C(=O)C[C@@H](N)CCCCN)C(=O)C[C@@H](N)Cc1ccccc1", "tested on": "HIV-1 TAR RNA", "conditions": "concentration not given, 25 °C", "measurement": "binding entropy term TΔS°", "result": "-2.58 ± 0.215 kcal/mol"}
{"Compound": "CCCOC(=O)N1c2cc(CNC)ccc2[C@H](NC(=O)C(=O)Nc2ccc(Cl)c(F)c2)[C@H]1CNC(=N)N", "tested on": "env (Human immunodeficiency virus 1, UniProt Q5G5U7)", "test": "pseudovirus infection, luciferase reporter", "test system": "TZM-bl", "conditions": "48 h", "measurement": "IC50", "result": "24 nM"}
{"Compound": "Cc1cc(C)cc(S(=O)(=O)c2c(C(N)=O)[nH]c3ccc(Cl)cc23)c1", "tested on": "Gag-Pol polyprotein, reverse transcriptase (gag-pol, Human immunodeficiency virus 1, UniProt P03366)", "test": "enzyme activity, inhibitor, ELISA", "measurement": "IC50", "result": "18 nM"}
{"Compound": "Cc1c(S(=O)(=O)N2CCc3n[nH]cc3C2)cc(C(=O)NCc2cccc3occc23)n1C", "tested on": "Replicase polyprotein 1ab, nsp14 (rep, Severe acute respiratory syndrome coronavirus 2, UniProt P0DTD1)", "test": "inhibitor", "measurement": "IC50", "result": "0.9 nM"}
{"Compound": "F[P-](F)(F)(F)(F)F.OC(Cn1cncn1)(Cn1cc(-[c-]2cccc2)nn1)c1ccc(F)cc1F.[Co+3].c1cc[cH-]c1 (racemic)", "tested on": "Trypanosoma cruzi", "test system": "CL Brener", "how to read": "relative to: Vero IC50 over parasite IC50", "measurement": "selectivity ratio", "result": 25}
{"Compound": "C[C@H](Nc1ncnc(N)c1C#N)c1c(-c2ccccc2)[nH]c2c(Cl)cccc2c1=O", "tested on": "PIK3CG (Homo sapiens, UniProt P48736)", "test": "kinase activity, inhibitor", "measurement": "IC50", "result": "101 nM"}
{"Compound": "CNCc1ccc2c(c1)N(C(=O)OCc1c(F)c(F)c(F)c(F)c1F)[C@H](CNC(=N)N)[C@H]2NC(=O)C(=O)Nc1ccc(Cl)c(F)c1", "tested on": "env (Human immunodeficiency virus 1, UniProt Q27Q69)", "test": "pseudovirus infection, luciferase reporter", "test system": "TZM-bl", "conditions": "48 h", "measurement": "IC50", "result": "73 nM"}
{"Compound": "CC[C@H](C)[C@H](NC(=O)[C@H](Cc1ccccc1)NC(=O)[C@@H]1CCn2cc(nn2)-c2cccc(c2)-c2cn(nn2)CC[C@H](NC(=O)[C@H](CCC(N)=O)NC(=O)[C@H](CCCCN)NC(=O)[C@H](CO)NC(=O)[C@H](CC(C)C)NC(=O)[C@H](CC(=O)O)NC(=O)[C@H](CO)NC(=O)[C@@H](NC(=O)[C@H](Cc2ccccc2)NC(=O)[C@@H](NC(=O)CNC(=O)[C@H](CCC(=O)O)NC(=O)CNC(=O)[C@@H](N)Cc2c[nH]cn2)[C@@H](C)O)[C@@H](C)O)C(=O)N[C@@H](CCC(=O)O)C(=O)N[C@@H](CCC(=O)O)C(=O)N[C@@H](CCC(=O)O)C(=O)N[C@@H](C)C(=O)N[C@@H](C(C)C)C(=O)N[C@@H](CCCNC(=N)N)C(=O)N1)C(=O)N[C@@H](CCC(=O)O)C(=O)N[C@@H](Cc1c[nH]c2ccccc12)C(=O)N[C@@H](CC(C)C)C(=O)N[C@@H](CCCCN)C(=O)N[C@@H](CC(N)=O)C(=O)NCC(=O)NCC(=O)N1CCC[C@H]1C(=O)N[C@@H](CO)C(=O)N[C@@H](CO)C(=O)NCC(=O)N[C@@H](C)C(=O)N1CCC[C@H]1C(=O)N1CCC[C@H]1C(=O)N1CCC[C@H]1C(=O)N[C@@H](CO)C(N)=O", "tested on": "Glucagon-like peptide 1 receptor (Mus musculus, UniProt O35659)", "test": "cell-free assay", "measurement": "Kd", "result": "0.8 nM"}
{"Compound": "O=C(O)c1ccccc1OCc1ccccc1Br", "tested on": "RAC1 (Homo sapiens, UniProt P63000, Q61L)", "test": "GTP binding, activator, flow cytometry bead", "conditions": "EDTA buffer, together with: 100 nM BODIPY-GTP", "measurement": "EC50", "result": "81.3 nM"}
{"Compound": "CNCc1ccc2c(c1)C[C@H](CNC(=N)N)[C@H]2NC(=O)C(=O)Nc1ccc(Cl)c(F)c1", "tested on": "env (Human immunodeficiency virus 1, UniProt Q5G5U7)", "test": "pseudovirus infection, luciferase reporter", "test system": "TZM-bl", "conditions": "48 h", "measurement": "IC50", "result": "130 nM"}
{"Compound": "C=C1C[C@](OC)([C@H](O)C(=O)NC[C@@H]2C[C@@H](OC)C(C)(C)[C@@H](C[C@@H](COC)OC)O2)O[C@H](C)[C@@H]1C", "tested on": "HEK-293T", "test": "cell viability, sulforhodamine B", "conditions": "48 h, 37 °C, without H2O2", "measurement": "IC50", "result": "7.5 ± 0.3 nM"}
{"Compound": "CC(=O)NCCN(CCC(=O)NCCN(CCC(=O)NCCN(CCC(=O)NCCC(N)=O)C(=O)[C@@H](N)CCCNC(=N)N)C(=O)[C@@H](N)CCCNC(=N)N)C(=O)[C@@H](N)Cc1ccccc1", "tested on": "HIV-1 TAR RNA", "conditions": "concentration not given, 25 °C", "measurement": "binding entropy term TΔS°", "result": "-4.02 ± 0.12 kcal/mol"}
{"Compound": "COCCNc1nc(-c2nccn2C)nc2sc(-c3cccc(OC)c3Cl)c(-c3ccccc3)c12", "tested on": "RAC1 (Homo sapiens, UniProt P63000)", "test": "GTP binding, inhibitor, cell-free GTP competition", "conditions": "together with: fluorescent GTP 100 nmol/L", "measurement": "IC50", "result": "2500 nM"}
